# Assay results of several laboratories.
# ± marks the error that the study gave.
Compound,assay,test system,setting,scale,measurement,value
CCC(CC)n1c(Cc2cccs2)nc2cc(C(=O)N[C@@H](CC(=O)O)c3ccccc3)ccc21,,"male Sprague-Dawley rat, plasma","intraperitoneal, 10 mg/kg",,MRT(0-t),2.19 h
O=S1(=O)CC2CCCCC2CS1 (centres unmarked),"phase solubility, NMR",water,"25 °C, added: hydroxypropyl-β-cyclodextrin 241 mM",,solubility,27.2 mM
O=C(CCC(F)(F)F)Nc1ccc(C2CCCCC2)cc1,hepatocyte stability,cryopreserved rat hepatocytes,1 µM,,hepatic clearance,40 mL/min/kg
C[C@]12C[C@H](c3ccc(S(C)(=O)=O)cc3)C3=C4CCC(=O)C=C4CC[C@H]3[C@@H]1CC[C@@]2(O)C(F)(F)C(F)(F)F,item: compound (parent),"healthy human volunteers, pooled plasma","oral, 5 mg daily, day 28, 1.5 h",,plasma concentration,27.6 ng/mL
CCN(CC)c1ccc2c(c1)O[B-]1(c3ccccc3OC)OC(=O)C(c3ccccc3)=N[N+]1=C2 (centres unmarked),,toluene,,,fluorescence emission maximum,508 nm
CC(=O)Nc1ccc([C@H]2[C@@H](F)[C@@H](F)C[C@@H](F)[C@H]2F)cc1,liver microsome stability,rat liver microsomes,1 µM,,hepatic clearance,20 mL/min/kg
CN1CCC[C@]1(C)/C=C/S(=O)(=O)NC(=O)Nc1c2c(cc3c1C(O)CC3)CCC2 (some centres unmarked),,"human, plasma","oral, 100 mg twice daily of parent drug, day 14, metabolite of dosed drug",,AUC(0-inf),541 µg·h/mL
CC[C@H](C)[C@@H]1NC(=O)[C@H](Cc2ccc(O)cc2)NC(=O)CCCSC[C@@H](C(=O)N(CC(=O)N[C@@H](CC(C)C)C(=O)NCC(N)=O)Cc2ccc(F)cc2)NC(=O)[C@H](CC(N)=O)NC(=O)[C@H](CCC(N)=O)NC1=O,,human,"intranasal and intravenous, 400 µg intranasal and 20 µg intravenous",,AE leading to discontinuation,0%
Cc1nc(N)nc2c1C(=O)N[C@@H](c1ccc(F)cc1-c1cccc(O[11CH3])n1)C2,ex vivo biodistribution,"mice, U87 subcutaneous xenograft, kidneys","60 min post-injection, baseline, vehicle pre-treatment",,tracer uptake,3 ± 0.5 %ID
C=C(NC(=O)c1csc(-c2nc3c(cc2O)-c2nc(cs2)C(=O)NC(C(C)O)C(=O)NC(=C(C)OC)c2nc(cs2)C(=O)NC2c4nc(cs4)C(=O)NC(COC(=O)c4c5c6c(cccc6n4O)COC(=O)C(OC4CC(C)(O)C(N(C)C)C(C)O4)C2OC5)c2nc-3cs2)n1)C(N)=O (centres unmarked),,"cynomolgus monkey, male, plasma","intravenous infusion, 1.5 mg/kg twice daily, 0 to 30 h",,Cmax,13500 ng/mL
O=C(Nc1ccc(C2CCCCC2)cc1)C1CC1,hepatocyte stability,cryopreserved human hepatocytes,1 µM,,hepatic clearance,18 mL/min/kg
COc1cccc(OC)c1-c1cc(C(=O)NC2(C(=O)O)C3CC4CC(C3)CC2C4)nn1-c1ccc(C(=O)N(C)CCCN(C)CCCN(C)C(=O)[C@H](CCCCNC(=O)[C@H](CC(C)C)NC(=O)C2OC2C(=O)O)NC(=O)CN2CCN(CC(=O)[O-])CCN(CC(=O)[O-])CCN(CC(=O)[O-])CC2)cc1C(C)C.[177Lu+3] (mixture of isomers),,"mouse, HT-29 xenograft","72 h post injection, biodistribution",relative to: tumour over blood uptake,tumour-to-blood ratio,24
Cc1ccc(OCC(=O)N(Cc2cccs2)c2ccn[nH]2)cc1,,monkey plasma,"750 ng/mL, 2 h, 37 °C, unit not given",relative to: time zero,remaining compound,83.1
O=C(NCCO)c1ccc(C2CCCCC2)cc1,liver microsome stability,cynomolgus liver microsomes,1 µM,,hepatic clearance,38 mL/min/kg
[123I]c1ccc2nc(-c3ccc(-n4ccnn4)nc3)cn2c1,,"male Wistar rat, large intestine","intravenous, 4 MBq, 24 h",,tissue uptake,0.122 ± 0.026 %ID/g
CS(=O)(=O)c1ccc(-c2ccc([C@H]3[C@@H](F)[C@@H](F)C[C@@H](F)[C@H]3F)cc2)cn1,liver microsome stability,rat liver microsomes,1 µM,,hepatic clearance,6.1 mL/min/kg
COc1cc2c(cc1OC)[C@H]1C[C@H](O)[C@H](CC(C)C)CN1CC2,item: non-deuterated analyte,"healthy human male, plasma","oral, 25 mg, median, [14C]-tetrabenazine dosed",,Tlag,0.5 h

# Repeated from above:
Compound,assay,test system,setting,scale,measurement,value
COc1cccc(OC)c1-c1cc(C(=O)NC2(C(=O)O)C3CC4CC(C3)CC2C4)nn1-c1ccc(C(=O)N(C)CCCN(C)CCCN(C)C(=O)[C@H](CCCCNC(=O)[C@H](CC(C)C)NC(=O)C2OC2C(=O)O)NC(=O)CN2CCN(CC(=O)[O-])CCN(CC(=O)[O-])CCN(CC(=O)[O-])CC2)cc1C(C)C.[177Lu+3] (mixture of isomers),,"mouse, HT-29 xenograft","72 h post injection, biodistribution",relative to: tumour over blood uptake,tumour-to-blood ratio,24
Cc1ccc(OCC(=O)N(Cc2cccs2)c2ccn[nH]2)cc1,,monkey plasma,"750 ng/mL, 2 h, 37 °C, unit not given",relative to: time zero,remaining compound,83.1
